Published values gathered from unrelated publications.
Every numbered part comes from another study and shows a few of its results, in no order.

Sample 1
Target: Interferon regulatory factor 7, full length, phosphomimetic (IRF7, Homo sapiens, UniProt Q92985, residues 1-503, S101K/S471D/S472D/S475D/S476D/S477D/S483D/S484D/S487D)
Method: protein-binding microarray
Molecule type: double-stranded DNA, one strand shown
Matrix: in vitro
Tested at: 250 nM
Setting: 60-bp whole probe
Together with: salmon DNA 0.4 mg/ml
Relative to: random background probes
Reading: higher = stronger binding
All sequences stand within: GCCTAGCAC … GTCTTGATTCGCTTGACGCTGCTG
Target sequence (chain): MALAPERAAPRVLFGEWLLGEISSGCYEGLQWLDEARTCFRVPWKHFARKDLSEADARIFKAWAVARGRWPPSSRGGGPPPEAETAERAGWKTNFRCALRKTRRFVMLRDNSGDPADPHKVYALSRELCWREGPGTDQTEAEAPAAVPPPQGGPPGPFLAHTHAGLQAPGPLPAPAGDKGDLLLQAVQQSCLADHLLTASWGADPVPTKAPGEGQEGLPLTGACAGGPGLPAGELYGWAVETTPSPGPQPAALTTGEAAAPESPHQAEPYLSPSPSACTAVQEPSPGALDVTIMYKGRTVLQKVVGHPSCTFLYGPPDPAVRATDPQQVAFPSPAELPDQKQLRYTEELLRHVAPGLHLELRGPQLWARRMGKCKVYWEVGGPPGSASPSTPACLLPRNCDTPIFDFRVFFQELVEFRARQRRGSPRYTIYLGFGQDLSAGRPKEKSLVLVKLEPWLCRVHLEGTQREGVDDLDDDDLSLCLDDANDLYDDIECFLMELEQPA
`GACGATTCCAGTTTCGAGCCGTGCTAG` gave a log fluorescence of 2.49 z-score.
`GAACATACTAATTTCCATTTGTGCTAG` gave a log fluorescence of 1.71 z-score.
`TCACTTTTAATTTTTAAACTGTGCTAG` has a log fluorescence of 0.694 z-score.
`GACGGTATCCTACAGCTGACGTGCTAG` gave a log fluorescence of -0.257 z-score.
`CACGATATCGGGTTTCGAGACGTGCTA` has a log fluorescence of 3.19 z-score.
With `TTAGGTCTGGGACTGGGTTAGTGCTAG` the log fluorescence was -0.373 z-score.

Sample 2
Target: Sox-I, HMG box (Salpingoeca helianthica)
Method: Spec-seq
Molecule type: double-stranded DNA, one strand shown
Matrix: in vitro
Tested at: not given
Setting: whole probe, mean of replicates
Relative to: not given
Reading: lower = stronger binding
All sequences stand within: GAGTCGTCTCGTCAGCAC … CCGTAGAGCACTCAGGTC
Construct (chain): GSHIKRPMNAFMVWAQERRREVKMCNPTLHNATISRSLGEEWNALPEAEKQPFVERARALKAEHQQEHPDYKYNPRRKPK
Under “relative binding energy”, `AATTGTT` is recorded as -2.56 ln ratio.
`TCACGTT`: “relative binding energy” 0.747 ln ratio.
Under “relative binding energy”, `CATACCA` is recorded as 0.367 ln ratio.
`CATCATA` — result for “relative binding energy”: 0.421 ln ratio.
`CATGCCC` — result for “relative binding energy”: 1.15 ln ratio.

Sample 3
Target: Sal-like protein 4, full length isoform A (SALL4, Homo sapiens, UniProt Q9UJQ4, residues 1-1053)
UniProt Q9UJQ4, sequence (whole entry, looked up): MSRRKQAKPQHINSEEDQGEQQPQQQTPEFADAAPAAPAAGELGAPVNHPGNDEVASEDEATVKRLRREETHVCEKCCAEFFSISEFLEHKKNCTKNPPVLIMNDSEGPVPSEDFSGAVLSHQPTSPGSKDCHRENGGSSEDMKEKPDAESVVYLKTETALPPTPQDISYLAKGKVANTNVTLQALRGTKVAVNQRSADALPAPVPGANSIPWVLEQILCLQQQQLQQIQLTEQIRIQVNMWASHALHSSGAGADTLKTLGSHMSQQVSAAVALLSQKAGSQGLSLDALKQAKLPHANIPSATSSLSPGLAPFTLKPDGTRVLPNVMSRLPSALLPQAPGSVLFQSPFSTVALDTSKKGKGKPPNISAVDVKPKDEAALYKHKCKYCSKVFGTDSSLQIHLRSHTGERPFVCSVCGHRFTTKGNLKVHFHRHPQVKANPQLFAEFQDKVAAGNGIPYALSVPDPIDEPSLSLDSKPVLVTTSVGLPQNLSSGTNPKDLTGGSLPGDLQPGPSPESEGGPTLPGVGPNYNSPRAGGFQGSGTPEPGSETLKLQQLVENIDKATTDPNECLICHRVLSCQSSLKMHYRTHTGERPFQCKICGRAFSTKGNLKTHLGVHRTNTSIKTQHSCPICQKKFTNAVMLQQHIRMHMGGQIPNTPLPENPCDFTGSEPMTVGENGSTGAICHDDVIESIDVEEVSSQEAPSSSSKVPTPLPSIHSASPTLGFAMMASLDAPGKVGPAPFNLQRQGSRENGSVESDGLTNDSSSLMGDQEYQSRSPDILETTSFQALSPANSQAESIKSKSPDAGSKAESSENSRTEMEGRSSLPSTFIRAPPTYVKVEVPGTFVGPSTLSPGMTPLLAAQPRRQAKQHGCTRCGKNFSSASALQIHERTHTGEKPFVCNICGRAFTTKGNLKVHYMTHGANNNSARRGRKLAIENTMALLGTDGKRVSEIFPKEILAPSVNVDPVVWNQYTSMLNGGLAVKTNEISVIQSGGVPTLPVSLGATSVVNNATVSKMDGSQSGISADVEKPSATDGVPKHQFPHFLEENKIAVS
Method: universal PBM
Molecule type: double-stranded DNA, one strand shown
Matrix: in vitro
Tested at: 600 nM
Setting: 8-mer, flanks averaged, mean of replicates
Reading: higher = stronger binding
`CCCGGGGC` has an E-score of -0.424.
`GTAGACCA` has an E-score of -0.127.
The E-score of `ATCGCATG` is reported as 0.0341.
For `CCGCGATA`, the E-score was -0.00747.
With `CGGTGAAC` the E-score was -0.0935.

Other studies, line by line
`PhoQ, residues 284 288 289 292 302 303 SLANIV` gave a fold induction of 16.3 (PhoP, residues 12 14 15 18 19 LHSVQ (Escherichia coli, UniProt P23836); Sort-seq, measured: YFP reporter; E. coli; PhoQ-PhoP variant library, together with: 10 µM Mg2+; relative to: high Mg2+ state, higher = stronger signaling).

A few entries again (sample 2):
`CATCATA` — result for “relative binding energy”: 0.421 ln ratio.
`CATGCCC` — result for “relative binding energy”: 1.15 ln ratio.
